Assay results collected from several papers.
Every numbered part comes from another study and shows a few of its results, in no order. Substitutions count along the parent as printed.

Series 1
Target: RING finger protein unkempt homolog, zinc fingers 1-6, GST-SBP tag (UNK, Homo sapiens, UniProt Q9C0B0, residues 30-357)
Technique: RNA Bind-n-Seq
Form: RNA
Matrix: in vitro
Concentration: not given
Notes: RNA with constant flanks, human and mouse sites, ends assumed
Reference: input RNA pool
Direction: higher = stronger binding
Quantity: bound/input enrichment
Shared flanks, not repeated: GGGAGUUCUACAGUCCGACGAUC … CAACAGAGGAUUGAGCAUCA
Construct (chain): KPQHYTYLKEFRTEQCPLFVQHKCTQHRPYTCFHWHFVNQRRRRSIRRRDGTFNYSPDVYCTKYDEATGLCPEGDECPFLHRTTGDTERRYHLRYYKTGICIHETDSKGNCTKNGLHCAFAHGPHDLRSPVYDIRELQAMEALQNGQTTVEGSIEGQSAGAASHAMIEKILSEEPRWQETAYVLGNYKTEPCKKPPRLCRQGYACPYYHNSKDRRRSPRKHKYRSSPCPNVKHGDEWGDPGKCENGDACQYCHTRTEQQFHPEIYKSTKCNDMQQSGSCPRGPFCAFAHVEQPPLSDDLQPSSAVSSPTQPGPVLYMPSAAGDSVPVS
UACCGCUUCCCAACUACUGAUGGUAACCACCUACGGAUCCUGGAGCAGAUGGCAGAGAGCGUCCUCUCCCUGCACGUGCCUCGGCAGUUUGUGAAGCUACUGCUGGAAGAAGAUGCAGCC: 0.0965 ratio
GAUCUCGUCUGAGCAUCUCUAGUGACCUUCUCUGCAUUAACUGUCAGUGCUACGGAUAUUUUUAGCUCCAAGUCCUGGCAGGGUGGGGCACCUAUCUGAGGCAGGGUUUGGUGCCCCCUC: 0.283 ratio
AGGUAUCAUUGCCCAGUGCCUAAGAUCUUUUAUGUUCAGCUCACUGUAGGAAAUAAUGAAUUUUUUGGGGAAGGAAAGACUCGACAAGCUGCUAGACACAAUGCUGCAAUGAAAGCCCUC: 5.24 ratio
UGACAAGGGCACUGCAGAGCCAUGCCUUUCCUUGACAUACAGAAAAAGCUGGGCAUCAGCCUGGACCGGCACUUUAUGUUCCUAAGCGCAGAACAGCCCUAUAAGAACGCCGCUCGGUGC: 0.085 ratio
AAGGAUGGUGAGCUCCCUGUGGAGGACGACAUUGACCUCAGUGACGUGGAGCUGGAUGACCUGGAGAAGGAUGAGUUGUGAGCCACGGCCCAGCCUUCCUUGGGCUUUCCUUGGGAGCGA: 0.106 ratio
AUUUUUUUAUUUGUUUUCAGGGGGGUUUUUUGGGGGAAAAUUUUUUUAAAUGGAAGCUUCUAGCAAGCCCCCCACCCCAAUCAACCUCUAUGCUUUCUUCUUAAAAAAAAAAAAAAAGGA: 0.459 ratio
GAAAUGUUAGCACACAGAGCAGUGCUAGCUUGCUGCAGUCCCUAUUUAUUUGAAAUCUUUAAUAGUGAUAGUGAUCCUCAUGGAAUUUCUCACGUUAAAUUUGAUGAUCUCAAUCCAGAA: 1.75 ratio
GCCAUGACACUUGAUGAGACUAGUGUGUCUGCCCUAGUUGGAUUUAUCCAAUGUCAGUUGAUAGAAGGGCAAUUACAGGAUGCAGAUCAGCAGCUAGAAUUUUUAAAUGAAAUCCAGCAA: 0.486 ratio

Series 2
Target: Histone acetyltransferase KAT6A, both winged helices, GST fusion (KAT6A, Homo sapiens, UniProt Q92794, residues 1-181)
Technique: protein binding microarray
Form: double-stranded DNA, one strand shown
Matrix: in vitro
Concentration: not given
Notes: 8-mer, flanks averaged, mean of 2 arrays, mostly near background
Reference: not given
Direction: higher = stronger binding
Quantity: E-score
Construct (chain): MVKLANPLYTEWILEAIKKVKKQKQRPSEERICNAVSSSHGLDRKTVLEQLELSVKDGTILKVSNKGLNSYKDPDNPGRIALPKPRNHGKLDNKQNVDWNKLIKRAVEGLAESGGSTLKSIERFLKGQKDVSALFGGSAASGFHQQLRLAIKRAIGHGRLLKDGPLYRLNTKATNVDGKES
ACTGTCGC: 0.0951
AAGCATAT: -0.083
TACGAAAA: -0.116
AAATAGCG: 0.178
CGTCGAAC: 0.0941
CTGCTGAA: -0.159
CCCCTCGC: -0.0436
AACCCCGT: 0.222

Single results of other studies
CCNE1: CCNE1, cyclin fold, Cln2 fusion (human)
P1: PKN2 docking peptide (human); VSAVRKLDFSDTM; partner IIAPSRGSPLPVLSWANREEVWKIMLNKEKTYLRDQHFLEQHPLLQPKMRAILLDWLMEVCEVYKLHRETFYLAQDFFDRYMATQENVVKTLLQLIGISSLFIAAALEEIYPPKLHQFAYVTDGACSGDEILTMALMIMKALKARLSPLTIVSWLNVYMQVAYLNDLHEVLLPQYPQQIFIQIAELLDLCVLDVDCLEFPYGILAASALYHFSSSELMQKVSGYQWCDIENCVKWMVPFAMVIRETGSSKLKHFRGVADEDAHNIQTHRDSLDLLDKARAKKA
P1 K6H  normalised enrichment score (CCNE1; yeast growth competition, sequencing; yeast; strong parent motif; reference: not given, higher = stronger binding): 2.84
PhoQ, residues 284 288 289 292 302 303 NSMLDC  fold induction (PhoP, residues 12 14 15 18 19 NHFIF (Escherichia coli, UniProt P23836); Sort-seq, item: YFP reporter; E. coli; PhoQ-PhoP variant library, added: 10 µM Mg2+; reference: high Mg2+ state, higher = stronger signaling): 22.8
GSPLKKLFTATGL  binding score (Saccharomyces cerevisiae; peptide binding, yeast competitive growth sequencing; peptide, cyclin F-Cln2 fusion; concentration not given, combined libraries, Cln2-subtracted; direction not given): 1.66
P1 R5D  normalised enrichment score (CCNE1; yeast growth competition, sequencing; yeast; strong parent motif; reference: not given, higher = stronger binding): 0.198
P1 V4A  normalised enrichment score (CCNE1; yeast growth competition, sequencing; yeast; strong parent motif; reference: not given, higher = stronger binding): 3.85

Excerpt of the above (series 2):
CCCCTCGC: -0.0436
AACCCCGT: 0.222
